{"data": "Measurements collected from several papers", "note": "Every numbered part comes from another study and shows a few of its results, in no order.", "UniProt O75676, sequence (whole entry, looked up)": "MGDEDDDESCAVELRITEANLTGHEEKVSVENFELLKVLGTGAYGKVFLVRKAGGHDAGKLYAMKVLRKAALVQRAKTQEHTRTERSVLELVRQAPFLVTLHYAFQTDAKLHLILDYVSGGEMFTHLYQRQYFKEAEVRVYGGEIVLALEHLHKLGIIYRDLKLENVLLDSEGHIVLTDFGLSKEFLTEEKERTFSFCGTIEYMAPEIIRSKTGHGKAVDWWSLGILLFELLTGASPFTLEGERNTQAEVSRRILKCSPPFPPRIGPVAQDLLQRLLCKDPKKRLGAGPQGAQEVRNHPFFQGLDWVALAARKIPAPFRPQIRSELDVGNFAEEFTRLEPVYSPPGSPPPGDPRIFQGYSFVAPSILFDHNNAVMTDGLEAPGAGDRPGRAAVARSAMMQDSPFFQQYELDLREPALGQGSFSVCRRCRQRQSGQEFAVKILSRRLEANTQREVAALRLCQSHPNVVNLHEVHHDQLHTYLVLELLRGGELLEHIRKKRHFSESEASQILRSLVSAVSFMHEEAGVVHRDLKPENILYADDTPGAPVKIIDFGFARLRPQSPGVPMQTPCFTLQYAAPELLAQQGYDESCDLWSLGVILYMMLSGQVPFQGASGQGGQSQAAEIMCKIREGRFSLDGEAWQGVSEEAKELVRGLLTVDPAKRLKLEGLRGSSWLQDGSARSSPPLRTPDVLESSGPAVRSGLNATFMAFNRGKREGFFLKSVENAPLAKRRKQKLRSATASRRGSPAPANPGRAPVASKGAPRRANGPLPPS", "UniProt Q8N4C8, sequence (whole entry, looked up)": "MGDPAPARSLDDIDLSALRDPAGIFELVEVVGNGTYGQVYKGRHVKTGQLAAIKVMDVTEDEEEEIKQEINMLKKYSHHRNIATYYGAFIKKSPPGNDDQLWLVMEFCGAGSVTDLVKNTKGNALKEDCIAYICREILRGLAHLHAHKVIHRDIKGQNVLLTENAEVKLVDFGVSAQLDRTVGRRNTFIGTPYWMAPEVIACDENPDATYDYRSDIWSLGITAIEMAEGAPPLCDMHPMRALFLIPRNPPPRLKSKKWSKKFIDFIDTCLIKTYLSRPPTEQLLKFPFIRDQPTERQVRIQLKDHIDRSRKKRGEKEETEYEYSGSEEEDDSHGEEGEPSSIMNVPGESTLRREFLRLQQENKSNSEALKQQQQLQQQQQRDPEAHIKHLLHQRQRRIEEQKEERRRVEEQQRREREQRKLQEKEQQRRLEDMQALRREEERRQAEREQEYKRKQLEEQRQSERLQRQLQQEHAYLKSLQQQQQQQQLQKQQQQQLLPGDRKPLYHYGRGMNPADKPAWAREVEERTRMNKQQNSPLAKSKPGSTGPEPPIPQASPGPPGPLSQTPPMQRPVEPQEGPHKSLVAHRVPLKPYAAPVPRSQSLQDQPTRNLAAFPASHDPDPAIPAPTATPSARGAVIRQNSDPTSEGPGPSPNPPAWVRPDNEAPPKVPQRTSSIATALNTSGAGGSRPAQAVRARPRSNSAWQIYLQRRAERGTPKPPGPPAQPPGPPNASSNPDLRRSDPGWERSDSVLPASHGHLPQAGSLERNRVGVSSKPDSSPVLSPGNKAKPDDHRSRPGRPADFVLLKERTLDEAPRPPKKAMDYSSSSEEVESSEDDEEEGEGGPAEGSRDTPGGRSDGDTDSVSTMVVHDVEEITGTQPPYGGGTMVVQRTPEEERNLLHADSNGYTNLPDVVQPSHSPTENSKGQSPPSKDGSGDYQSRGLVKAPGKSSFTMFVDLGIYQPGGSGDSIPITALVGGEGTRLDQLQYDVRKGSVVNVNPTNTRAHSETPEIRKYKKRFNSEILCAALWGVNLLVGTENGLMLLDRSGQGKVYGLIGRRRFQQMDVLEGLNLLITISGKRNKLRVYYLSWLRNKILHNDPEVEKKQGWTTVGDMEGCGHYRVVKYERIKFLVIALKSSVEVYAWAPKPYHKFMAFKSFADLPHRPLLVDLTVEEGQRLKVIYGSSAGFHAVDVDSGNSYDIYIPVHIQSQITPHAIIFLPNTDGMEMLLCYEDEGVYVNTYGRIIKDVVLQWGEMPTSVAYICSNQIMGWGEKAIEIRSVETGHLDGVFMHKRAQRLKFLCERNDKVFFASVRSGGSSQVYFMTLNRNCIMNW", "UniProt P50750, sequence (whole entry, looked up)": "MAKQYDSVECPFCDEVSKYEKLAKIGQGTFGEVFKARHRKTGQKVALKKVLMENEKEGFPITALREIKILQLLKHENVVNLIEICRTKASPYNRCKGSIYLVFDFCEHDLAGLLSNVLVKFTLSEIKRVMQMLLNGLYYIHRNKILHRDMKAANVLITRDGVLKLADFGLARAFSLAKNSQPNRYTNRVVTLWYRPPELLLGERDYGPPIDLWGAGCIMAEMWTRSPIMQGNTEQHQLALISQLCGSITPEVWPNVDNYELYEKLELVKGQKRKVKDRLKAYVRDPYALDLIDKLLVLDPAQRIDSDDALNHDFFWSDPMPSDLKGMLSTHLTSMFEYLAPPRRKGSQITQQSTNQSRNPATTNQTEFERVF", "UniProt Q9HAZ1, sequence (whole entry, looked up)": "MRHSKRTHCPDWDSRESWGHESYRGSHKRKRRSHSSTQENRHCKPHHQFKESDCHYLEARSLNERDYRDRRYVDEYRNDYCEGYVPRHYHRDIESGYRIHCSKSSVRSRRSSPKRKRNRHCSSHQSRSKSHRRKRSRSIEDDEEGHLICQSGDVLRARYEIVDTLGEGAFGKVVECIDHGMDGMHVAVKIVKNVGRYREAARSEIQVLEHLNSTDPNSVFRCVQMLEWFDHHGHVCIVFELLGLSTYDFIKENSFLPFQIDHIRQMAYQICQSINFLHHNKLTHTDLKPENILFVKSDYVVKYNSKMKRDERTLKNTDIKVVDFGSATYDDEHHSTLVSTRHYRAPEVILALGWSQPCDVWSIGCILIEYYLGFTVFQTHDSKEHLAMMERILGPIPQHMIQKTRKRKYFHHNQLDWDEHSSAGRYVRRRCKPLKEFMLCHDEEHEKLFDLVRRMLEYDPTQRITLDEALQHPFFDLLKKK", "UniProt O75914, sequence (whole entry, looked up)": "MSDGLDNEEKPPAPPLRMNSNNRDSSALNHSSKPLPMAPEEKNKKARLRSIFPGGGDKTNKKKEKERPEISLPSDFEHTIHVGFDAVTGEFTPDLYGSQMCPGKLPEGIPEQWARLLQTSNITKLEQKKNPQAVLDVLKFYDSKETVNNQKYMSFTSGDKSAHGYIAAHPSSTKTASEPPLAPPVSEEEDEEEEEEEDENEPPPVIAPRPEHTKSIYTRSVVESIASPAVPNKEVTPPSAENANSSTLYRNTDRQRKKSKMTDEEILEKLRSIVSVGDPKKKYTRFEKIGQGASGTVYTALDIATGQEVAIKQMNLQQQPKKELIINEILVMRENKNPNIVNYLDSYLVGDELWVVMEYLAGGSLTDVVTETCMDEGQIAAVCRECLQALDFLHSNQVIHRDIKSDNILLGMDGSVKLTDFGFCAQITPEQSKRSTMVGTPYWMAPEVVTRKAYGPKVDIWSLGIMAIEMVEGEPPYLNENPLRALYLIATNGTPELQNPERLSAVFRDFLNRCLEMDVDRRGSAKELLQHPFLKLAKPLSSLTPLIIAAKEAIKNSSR", "UniProt P42681, sequence (whole entry, looked up)": "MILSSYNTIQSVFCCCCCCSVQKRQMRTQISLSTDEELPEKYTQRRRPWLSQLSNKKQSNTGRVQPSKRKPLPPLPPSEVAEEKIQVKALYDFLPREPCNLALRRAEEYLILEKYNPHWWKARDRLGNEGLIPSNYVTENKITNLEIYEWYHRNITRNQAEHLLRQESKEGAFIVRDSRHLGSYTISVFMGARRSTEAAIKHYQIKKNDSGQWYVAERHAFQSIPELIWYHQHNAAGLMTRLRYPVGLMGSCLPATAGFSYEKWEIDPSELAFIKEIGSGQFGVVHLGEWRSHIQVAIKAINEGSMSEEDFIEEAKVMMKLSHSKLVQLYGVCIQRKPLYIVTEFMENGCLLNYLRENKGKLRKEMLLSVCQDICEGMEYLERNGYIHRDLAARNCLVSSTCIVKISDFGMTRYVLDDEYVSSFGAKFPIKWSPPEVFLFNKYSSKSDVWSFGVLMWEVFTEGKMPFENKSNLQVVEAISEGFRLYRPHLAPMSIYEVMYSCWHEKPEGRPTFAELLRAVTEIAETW", "UniProt Q16566, sequence (whole entry, looked up)": "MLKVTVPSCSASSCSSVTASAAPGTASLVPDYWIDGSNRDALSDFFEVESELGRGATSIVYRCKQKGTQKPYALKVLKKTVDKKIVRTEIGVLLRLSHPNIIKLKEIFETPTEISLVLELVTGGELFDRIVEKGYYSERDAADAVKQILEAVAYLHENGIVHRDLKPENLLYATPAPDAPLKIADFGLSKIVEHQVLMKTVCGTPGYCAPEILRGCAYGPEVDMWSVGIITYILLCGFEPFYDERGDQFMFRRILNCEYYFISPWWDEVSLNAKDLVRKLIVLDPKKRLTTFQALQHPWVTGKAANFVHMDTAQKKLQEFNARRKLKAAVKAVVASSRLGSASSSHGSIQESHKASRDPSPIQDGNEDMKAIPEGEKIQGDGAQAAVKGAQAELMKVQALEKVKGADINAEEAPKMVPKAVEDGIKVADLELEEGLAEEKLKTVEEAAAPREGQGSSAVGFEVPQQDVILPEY"}
{"data": "Series 1", "target": "Calcium/calmodulin-dependent protein kinase type II subunit alpha (CAMK2A, Homo sapiens, UniProt Q9UQM7)", "effect on": "enzyme activity", "action": "inhibitor", "concentration": "10 µM", "UniProt Q9UQM7, sequence (whole entry, looked up)": "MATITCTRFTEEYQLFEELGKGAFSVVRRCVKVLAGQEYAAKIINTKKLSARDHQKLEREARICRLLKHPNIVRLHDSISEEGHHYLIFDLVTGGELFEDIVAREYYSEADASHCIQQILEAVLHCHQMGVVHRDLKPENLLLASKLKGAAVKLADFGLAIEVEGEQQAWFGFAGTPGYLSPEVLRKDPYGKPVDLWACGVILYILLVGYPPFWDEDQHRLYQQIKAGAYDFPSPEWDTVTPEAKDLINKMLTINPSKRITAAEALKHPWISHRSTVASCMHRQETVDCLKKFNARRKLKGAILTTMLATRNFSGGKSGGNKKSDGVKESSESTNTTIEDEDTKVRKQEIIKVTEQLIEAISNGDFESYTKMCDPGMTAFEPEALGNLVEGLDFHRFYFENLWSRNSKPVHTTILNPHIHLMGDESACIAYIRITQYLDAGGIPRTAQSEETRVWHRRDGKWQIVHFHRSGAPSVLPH"}
{"SMILES": "CO/N=C(\\C(=O)N[C@@H]1C(=O)N2C(C(=O)[O-])=C(C[n+]3ccn4ncccc43)CS[C@H]12)c1nsc(N)n1", "inhibition": "-7%"}
{"SMILES": "CC[C@@]1(O)C(=O)OCc2c1cc1n(c2=O)Cc2cc3c(N)cccc3nc2-1", "inhibition": "-61%"}
{"SMILES": "[C-]#[N+]C(=C\\c1ccc(OC)cc1)/C(=C/c1ccc(OC)cc1)[N+]#[C-]", "inhibition": "24%"}
{"SMILES": "NCCc1cc[nH]n1", "inhibition": "-4%"}
{"SMILES": "O=C(O)[C@H](O)Cc1ccccc1", "inhibition": "-9%"}
{"data": "Series 2", "cell line": "HaCaT", "concentration": "100 µM", "time": "18 h"}
{"Compound": "N#CC1(c2ccc(NC(=O)c3cccnc3NCc3ccncc3)cc2)CCCC1", "viability [%]": 35.8}
{"Compound": "CCC[C@H](N[C@@H](C)C(=O)N1[C@H](C(=O)O)C[C@@H]2CCCC[C@@H]21)C(=O)OCC", "viability [%]": 111}
{"Compound": "CCOc1nc2cccc(C(=O)O)c2n1Cc1ccc(-c2ccccc2-c2nnn[nH]2)cc1", "viability [%]": 113}
{"Compound": "CC(Cc1cccc(C(F)(F)F)c1)NCCOC(=O)c1ccccc1 (centres unmarked)", "viability [%]": 16.5}
{"Compound": "Cc1nc(Nc2ncc(C(=O)Nc3c(C)cccc3Cl)s2)cc(N2CCN(CCO)CC2)n1", "viability [%]": 21.2}
{"Compound": "Cn1c(=O)cc(N2CCC[C@@H](N)C2)n(Cc2ccccc2C#N)c1=O", "viability [%]": 108}
{"Compound": "COc1ccc(CN2CCN(C(c3ccc(F)cc3)c3ccc(F)cc3)CC2)c(OC)c1OC", "viability [%]": 34.2}
{"data": "Series 3", "SMILES": "O=C1CCc2cc(Nc3cc(OC4CCOCC4)c([N+](=O)[O-])cc3Cl)ccc2N1", "effect on": "cell-free assay", "technique": "competition with immobilised ligand", "concentration": "1 µM"}
{"target": "Epidermal growth factor receptor (EGFR, Homo sapiens, UniProt P00533, del747-750/T751S)", "remaining binding [%]": 100}
{"target": "Serine/threonine-protein kinase/endoribonuclease IRE1 (ERN1, Homo sapiens, UniProt O75460)", "remaining binding [%]": 99}
{"target": "Mitogen-activated protein kinase 11 (MAPK11, Homo sapiens, UniProt Q15759)", "remaining binding [%]": 88}
{"target": "Serine/threonine-protein kinase 36 (STK36, Homo sapiens, UniProt Q9NRP7)", "remaining binding [%]": 96}
{"target": "Casein kinase II subunit alpha' (CSNK2A2, Homo sapiens, UniProt P19784)", "remaining binding [%]": 76}
{"data": "Series 4", "SMILES": "COc1cc2ncc(-c3ccccc3)nc2cc1OC", "effect on": "enzyme activity", "action": "inhibitor", "concentration": "0.5 µM", "reference": "control"}
{"target": "RAC-beta serine/threonine-protein kinase (AKT2, Homo sapiens, UniProt P31751)", "remaining activity": "86.7%"}
{"target": "Misshapen-like kinase 1 (MINK1, Homo sapiens, UniProt Q8N4C8)", "remaining activity": "93.5%"}
{"target": "Dual specificity protein kinase CLK4 (CLK4, Homo sapiens, UniProt Q9HAZ1)", "remaining activity": "102%"}
{"target": "Cyclin-dependent kinase 1, with cyclin A (CDK1, Homo sapiens, UniProt P06493)", "remaining activity": "94.8%"}
{"target": "Tyrosine-protein kinase TXK (TXK, Homo sapiens, UniProt P42681)", "remaining activity": "93.4%"}
{"target": "Cyclin-dependent kinase 9, with cyclin K (CDK9, Homo sapiens, UniProt P50750)", "remaining activity": "102%"}
{"target": "Ribosomal protein S6 kinase alpha-4 (RPS6KA4, Homo sapiens, UniProt O75676)", "remaining activity": "85.4%"}
{"target": "Serine/threonine-protein kinase PAK 3 (PAK3, Homo sapiens, UniProt O75914)", "remaining activity": "94.7%"}
{"target": "Serine/threonine-protein kinase DCLK2 (DCLK2, Homo sapiens, UniProt Q8N568)", "remaining activity": "96%"}
{"target": "Serine/threonine-protein kinase Nek3 (NEK3, Homo sapiens, UniProt P51956)", "remaining activity": "90.5%"}
{"target": "Calcium/calmodulin-dependent protein kinase type IV (CAMK4, Homo sapiens, UniProt Q16566)", "remaining activity": "95.2%"}
{"target": "Mitogen-activated protein kinase 1 (MAPK1, Homo sapiens, UniProt P28482)", "remaining activity": "95.6%"}
{"target": "Serine/threonine-protein kinase MARK2 (MARK2, Homo sapiens, UniProt Q7KZI7)", "remaining activity": "112%"}
{"target": "Dual specificity mitogen-activated protein kinase kinase 1 (MAP2K1, Homo sapiens, UniProt Q02750)", "remaining activity": "97.6%"}
{"target": "Myosin-IIIb (MYO3B, Homo sapiens, UniProt Q8WXR4)", "remaining activity": "84.6%"}
